# Published values pooled from the literature.
# Values joined by “and” are separate records of one study, mostly repeats; a detail may differ. ± gives the spread as reported.
SMILES,cell line,test,conditions,scale,quantity,value
Cc1ncsc1-c1ccc(C(C)NC(=O)C2CC(O)CN2C(=O)C(NC(=O)CCCCCCCCCCN2CCCC(Nc3ncc(Cl)c(Nc4ccccc4S(=O)(=O)C(C)C)n3)C2)C(C)(C)C)cc1 (stereo not shown),22Rv1,"RNA-seq, item: TMEM121 mRNA",concentration not given,relative to: DMSO,log2 fold change,-1.94
CN1CCCNC(=O)c2cccc(c2)C(=O)NCCCN(C)CCCNc2cccc3c2C(=O)c2cccc(c2C3=O)NCCC1,SAS,"RNA-Seq, item: MST1R mRNA","1 µM, 6 h",relative to: untreated cells,log2 fold change,-1.02
COc1cc(N2CCN(C(=O)CCOCCNC(=O)[C@@H]3CCCN3)CC2)ccc1Nc1ncc(Cl)c(Nc2ccccc2P(C)(C)=O)n1,H3122,flow cytometry,"500 nM, 24 h",,G1 phase cells,59.5% and 60.1% and 61.4%
CC(C)c1ccc(N(C)c2ccc3c(c2)OCC[C@H]3CNc2cnccc2C(=O)O)cc1,HT-144,"cell growth or viability, ATP luminescence",7 days,,IC50,≥ 10 µM
COC(=O)c1cc(NC2=NC(=O)C(=Cc3ccc(C)cc3)S2)ccc1OC(C)=O,MCF7,"GC-MS, item: Cycloserine",1 µM,relative to: DMSO,metabolite level,-0.47 fold change
[Cl-].[Cl-].[Ru+2].c1ccc(-c2ccccn2)nc1.c1ccc(-c2ccccn2)nc1.c1ccc2cc3nc4c5cccnc5c5ncccc5c4nc3cc2c1,SK-MEL-28,"cell growth, SRB","red light 633 nm, normoxia",,TGI,0.199 µM
CNC(NN=Cc1ccc([N+](=O)[O-])o1)=[S+][Au-][Cl],CAKI-1,annexin V/PI flow cytometry,"10 µM, 72 h",,cell fraction ANV−/PI+,2 ± 0.2%
O=C(Nc1nncs1)c1cccc([C@@H]2C[C@H]2NC2CCC2)c1,SET-2,"cell growth, CellTiter-Glo","0.1 µM, 7 d",relative to: vehicle,relative growth,71.6% and 70.3% and 78.5%
Fc1ccc(Nc2nc(NC3CCCCC3)c3ccccc3n2)cc1F,transfected HEK293 cells,"β-arrestin2 recruitment, negative allosteric modulator, BRET","30 min pre-incubation, β1AR ECL1 chimera, together with: isoproterenol 1 µM",relative to: isoproterenol alone,Imax,4.5%
O=C(Nc1ccc(Sc2ccc3c(/C=C/c4ccccn4)n[nH]c3c2)cc1)c1ccco1,Ba/F3 TEL-VEGFR2,"cell growth, CCK-8",,,GI50,500 nM
CCC(=CCc1c(O)cc2c(c1O)C(=O)CC(c1ccc(O)cc1)O2)CC (stereo not shown),HeLa,"cell growth or viability, MTT","50 µM, 48 h",,inhibition,91.5%
O=C1C2=C(NC(c3ccccc3)C(c3ccccc3)N2)C(=O)c2ccccc21 (stereo not shown),γ-carboxylation reporter cells,vitamin K-dependent γ-carboxylation,"10 µM, 24 h, together with: vitamin K 5 µM",relative to: DMSO,reporter protein carboxylation,< 5%
CCCCCCCCN(CCC(=O)Nc1ccccc1)C(=O)c1cc[nH]c1,"progeroid mouse fibroblasts, Lmna G609G/G609G",MTT,"2 µM, 72 h",relative to: vehicle-treated wild type,viability,53 ± 13%
COc1cc(C(=O)N2CC[C@@H](O)[C@@H](N)C2)cc2nc(-c3cc4cccnc4n3CC3CC3)n(C)c12,human neutrophils,"protein citrullination, inhibitor, flow cytometry, item: citrullinated histone H3","10 nM, together with: ionomycin",,inhibition,10.4% and 24.3% and 4.63% and 14.4%
CC(C)C[C@H](NC(=O)[C@@H]1CCCN1C(=O)[C@H](CCCCN)NC(=O)[C@@H](N)CO)C(=O)N1CCC[C@H]1C(=O)N[C@@H](CCC(=O)O)C(=O)N[C@H](C(=O)N[C@H](C(=O)N[C@@H](CC(=O)O)C(=O)N[C@@H](CCC(=O)O)C(=O)N[C@@H](Cc1ccc(O)cc1)C(=O)NCC(=O)NCCOCCOCCOCCOCCOCCOCCOCCOCCOCCOCCOCCOCCC(=O)N[C@@H](CCCCNC(=O)CC[C@H](C(=O)O)N1CCN(CC(=O)O)CCN(CC(=O)O)CC1)C(=O)N1CCN(CCCN(C)c2ccc3nccc(C(=O)NCC(=O)N4CC(F)(F)C[C@H]4C#N)c3c2)CC1)[C@@H](C)O)C(C)C,HT-1080 expressing hFAP,"binding, flow cytometry",200 nM,,positive cells,62.1%
COc1ccccc1C(=O)NCC(=O)Nc1ccc2[nH]nc(/C=C/c3ccccn3)c2c1,Ba/F3 TEL-VEGFR2,"cell growth, CCK-8",,,GI50,730 nM
COc1cccc(OC)c1-c1cc(C(=O)NC2(C(=O)O)C3CC4CC(C3)CC2C4)nn1-c1ccc(C(=O)N(C)CCCN(C)CCCN(C)C(=O)[C@H](CCCCNC(=O)[C@H](CC(C)C)NC(=O)C2OC2C(=O)O)NC(=O)CN2CCN(CC(=O)[O-])CCN(CC(=O)[O-])CCN(CC(=O)[O-])CC2)cc1C(C)C.[177Lu+3] (mixture of isomers),HT-29,,"concentration not given, 240 min",relative to: added activity,surface-bound fraction,3.3 ± 0.23%
COCCCCCNc1nc(NCCCCCCN(C)C)c2cc(NC(=O)/C=C/CN(C)C)ccc2n1,MCF7,CellTiter-Glo,"25 µM, 24 h, unit not given",relative to: DMSO-treated cells,viability,0.88 and 1
COC(=O)[C@@]1(C(C)C)C=C(C(=O)Nc2cccc(C(=O)Nc3ccc(Nc4nccc(-c5cccnc5)n4)c(C)c3)c2)C(=O)CC1,HEK293 AP1 reporter,"AP1 reporter gene, inhibitor","10 µM, 6 h, unit not given, together with: PMA",relative to: PMA alone,reporter activity,0.273
CCN(CC)CC(=O)Nc1cccc(-n2cc(-c3ccc4ccc(-c5cn(-c6cccc(NC(=O)CN(CC)CC)c6)nn5)cc4c3)nn2)c1,RCC4,"PCR angiogenesis array, item: IFNG","5 x IC50, 4 h, normoxia",relative to: untreated,fold regulation,1.06
COc1cc(N2CCN(C(=O)C3CCCN3)CC2)ccc1Nc1ncc(Cl)c(Nc2ccccc2P(C)(C)=O)n1 (stereo not shown),NCI-H3122,flow cytometry,"500 nM, 24 h",,G2 phase cells,6.7% and 5.12% and 5.45%
COc1ccc(O)cc1-c1c[nH]c2ncc(-c3cncc(C(=O)N(C)C)c3)cc12,K562,"inhibitor, Western blot","concentration not given, 6 h, normoxia",,CRKL and STAT5 phosphorylation,inhibited
CCCCCCc1cccc([C@H](O)C[C@H](CO)NC(=O)CCCCCCCCCCBr)c1,HeLa,"CERT activity, HPLC-MS/MS lipidomics","1 µM, 24 h, not cell-number normalised",,total ceramide level,62300 pmol/sample and 57300 pmol/sample and 51600 pmol/sample
CCOc1cncc(-c2ccc(NC(=O)C3(c4ccnc(NS(=O)(=O)C5CC5)n4)CCOCC3)nc2)n1,Detroit 562,"cell growth, CellTiter-Glo",72 h,,IC50,10 µM
Cn1ncc2cc(-c3cncc(Cl)c3N3CCC4(CCNC4=O)CC3)ccc21,LS174T,"microarray, item: PTGS2","concentration not given, 24 h, gene set COX-2",relative to: untreated cells,fold change in expression,-2.89
CN(C)CCN1CCN(c2ccc3nc(-c4ccc5nc(-c6ccc(C(F)(F)F)cc6)[nH]c5c4)[nH]c3c2)CC1,TK-10,SRB,"10 µM, 48 h",,growth percent,130%
Cn1c(=O)n(C2CCC(=O)NC2=O)c2ccc(C3CCN(CC(=O)Nc4cccc(CS(=O)(=O)N5CC[C@H](Nc6cccc(-c7sc(C(=O)O)c(OCC(=O)O)c7Cl)c6)CC5(C)C)c4)CC3)cc21 (stereo partly shown),B16-F10,"HTRF, item: phospho-STAT1 Tyr701","3.3 µM, together with: IFN-γ",relative to: min-max normalised,pSTAT1 level,98.2% and 88.6% and 88% and 93.1% and 90%
O=C(NCCCSc1ccc2c(/C=C/c3ccccn3)n[nH]c2c1)c1ccc(Cl)c(C(F)(F)F)c1,Ba/F3 TEL-VEGFR2,"cell growth, CCK-8",,,GI50,190 nM
CCn1nc(Cl)c2c1-c1cnc(N)c(c1)O[C@H](C)c1cc(F)ccc1-c1nn(C)cc1C2,Ba/F3 EML4-ALK variant 1 S1206F,cell viability,,,Emax,100%
CNS(=O)(=O)Nc1nccc(Cc2c(C)c3ccc(Oc4ncccc4F)cc3oc2=O)c1F,HT-144,cell viability,7 days,,IC50,0.00382 µM
O=C(Nc1cc(-c2ccnc3[nH]ccc23)c(Cl)cn1)[C@H]1CCC[C@@H](NC(=O)C(F)(F)F)C1,JeKo-1 and Mino,CellROX Green,"100 nM, 6 h",relative to: untreated,cellular ROS level,increased
